Results gathered from unrelated publications.
Each line is one published result; not all experiments were run side by side. Values joined by “and” are separate records of one study, mostly repeats; a detail may differ. Numbers after ± are the reported error.
Oprd1: Delta-type opioid receptor (Oprd1, Rattus norvegicus, UniProt P33533)
Sequence of UniProt P33533 (whole entry, looked up): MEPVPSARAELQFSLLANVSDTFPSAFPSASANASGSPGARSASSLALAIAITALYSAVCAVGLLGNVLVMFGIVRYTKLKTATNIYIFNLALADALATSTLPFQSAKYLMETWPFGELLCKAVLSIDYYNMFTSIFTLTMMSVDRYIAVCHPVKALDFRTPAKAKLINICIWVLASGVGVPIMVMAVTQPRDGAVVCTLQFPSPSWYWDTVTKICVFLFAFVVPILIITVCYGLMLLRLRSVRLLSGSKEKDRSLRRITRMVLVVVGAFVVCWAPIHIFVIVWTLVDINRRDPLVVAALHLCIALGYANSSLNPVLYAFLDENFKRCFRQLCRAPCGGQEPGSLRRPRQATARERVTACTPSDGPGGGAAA
Sequence of UniProt Q007T0 (whole entry, looked up): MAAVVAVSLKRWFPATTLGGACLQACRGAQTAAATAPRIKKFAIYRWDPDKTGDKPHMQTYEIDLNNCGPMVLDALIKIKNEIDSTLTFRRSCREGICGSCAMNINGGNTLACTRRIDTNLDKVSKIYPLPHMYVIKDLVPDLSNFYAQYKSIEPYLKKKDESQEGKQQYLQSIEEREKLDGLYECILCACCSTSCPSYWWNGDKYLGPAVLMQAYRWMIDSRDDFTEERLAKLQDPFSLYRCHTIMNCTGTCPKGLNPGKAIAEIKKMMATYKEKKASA
Sequence of UniProt D0VWV4 (whole entry, looked up): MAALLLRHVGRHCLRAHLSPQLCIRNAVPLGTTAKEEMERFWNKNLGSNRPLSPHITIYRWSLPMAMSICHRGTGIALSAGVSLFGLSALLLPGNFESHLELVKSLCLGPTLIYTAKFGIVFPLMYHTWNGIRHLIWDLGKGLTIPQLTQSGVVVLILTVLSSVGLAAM
Sequence of UniProt A5GZW8 (whole entry, looked up): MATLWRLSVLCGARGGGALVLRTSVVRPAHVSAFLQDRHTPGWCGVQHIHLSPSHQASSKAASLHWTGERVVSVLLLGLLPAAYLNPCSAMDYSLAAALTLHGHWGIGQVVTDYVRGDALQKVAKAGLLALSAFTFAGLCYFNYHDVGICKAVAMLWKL
Sequence of UniProt Q9UM07 (whole entry, looked up): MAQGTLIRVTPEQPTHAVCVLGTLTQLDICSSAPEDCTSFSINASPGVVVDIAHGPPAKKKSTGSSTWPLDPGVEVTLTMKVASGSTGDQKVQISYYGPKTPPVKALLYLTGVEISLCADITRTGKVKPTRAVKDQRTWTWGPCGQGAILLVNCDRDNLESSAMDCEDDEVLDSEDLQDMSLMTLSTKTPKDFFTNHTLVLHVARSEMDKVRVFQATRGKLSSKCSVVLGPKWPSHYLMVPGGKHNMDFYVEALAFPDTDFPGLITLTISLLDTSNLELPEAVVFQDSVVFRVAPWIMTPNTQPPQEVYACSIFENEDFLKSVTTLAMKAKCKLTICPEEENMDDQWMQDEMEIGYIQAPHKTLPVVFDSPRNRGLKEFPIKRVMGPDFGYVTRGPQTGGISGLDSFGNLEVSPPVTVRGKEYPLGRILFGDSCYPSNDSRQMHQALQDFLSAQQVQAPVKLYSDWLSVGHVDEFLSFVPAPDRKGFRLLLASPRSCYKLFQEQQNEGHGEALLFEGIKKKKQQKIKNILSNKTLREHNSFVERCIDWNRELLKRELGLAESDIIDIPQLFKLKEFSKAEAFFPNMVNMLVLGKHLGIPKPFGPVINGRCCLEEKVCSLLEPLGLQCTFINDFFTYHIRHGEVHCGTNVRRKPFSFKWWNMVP
Sequence of UniProt P07332 (whole entry, looked up): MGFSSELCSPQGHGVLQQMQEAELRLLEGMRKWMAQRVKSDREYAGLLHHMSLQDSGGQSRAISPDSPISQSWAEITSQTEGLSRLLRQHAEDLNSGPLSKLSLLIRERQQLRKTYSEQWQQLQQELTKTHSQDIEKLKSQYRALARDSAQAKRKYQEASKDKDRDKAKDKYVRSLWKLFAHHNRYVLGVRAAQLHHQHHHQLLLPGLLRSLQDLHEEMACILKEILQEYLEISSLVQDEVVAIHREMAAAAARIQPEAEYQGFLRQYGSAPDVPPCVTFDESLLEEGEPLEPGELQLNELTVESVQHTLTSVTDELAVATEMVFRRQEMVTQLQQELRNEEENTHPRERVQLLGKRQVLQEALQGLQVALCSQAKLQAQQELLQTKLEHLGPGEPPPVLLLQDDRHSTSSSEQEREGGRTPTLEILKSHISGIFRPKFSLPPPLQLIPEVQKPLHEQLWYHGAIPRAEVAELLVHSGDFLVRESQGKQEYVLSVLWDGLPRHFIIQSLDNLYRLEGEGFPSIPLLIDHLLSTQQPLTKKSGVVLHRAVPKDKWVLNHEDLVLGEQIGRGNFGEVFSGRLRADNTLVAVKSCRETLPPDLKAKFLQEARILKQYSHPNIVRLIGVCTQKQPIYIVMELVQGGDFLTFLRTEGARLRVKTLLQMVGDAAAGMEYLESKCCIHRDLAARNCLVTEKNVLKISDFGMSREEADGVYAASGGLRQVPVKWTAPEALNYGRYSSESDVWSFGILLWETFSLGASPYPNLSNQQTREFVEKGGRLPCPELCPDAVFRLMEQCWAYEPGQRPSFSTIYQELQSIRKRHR
Sequence of UniProt P08172 (whole entry, looked up): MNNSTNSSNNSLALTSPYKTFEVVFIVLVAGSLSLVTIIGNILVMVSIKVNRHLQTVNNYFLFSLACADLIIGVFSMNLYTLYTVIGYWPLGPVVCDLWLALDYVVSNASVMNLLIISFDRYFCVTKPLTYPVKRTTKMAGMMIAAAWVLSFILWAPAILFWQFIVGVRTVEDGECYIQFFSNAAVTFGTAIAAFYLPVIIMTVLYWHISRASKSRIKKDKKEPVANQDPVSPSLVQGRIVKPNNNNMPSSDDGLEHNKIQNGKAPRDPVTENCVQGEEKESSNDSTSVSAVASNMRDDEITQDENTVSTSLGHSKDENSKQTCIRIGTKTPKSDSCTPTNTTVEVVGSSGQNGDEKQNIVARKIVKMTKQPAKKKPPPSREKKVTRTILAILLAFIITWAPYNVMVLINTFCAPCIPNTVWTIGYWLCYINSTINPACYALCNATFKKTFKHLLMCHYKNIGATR
Sequence of UniProt Q6DWJ6 (whole entry, looked up): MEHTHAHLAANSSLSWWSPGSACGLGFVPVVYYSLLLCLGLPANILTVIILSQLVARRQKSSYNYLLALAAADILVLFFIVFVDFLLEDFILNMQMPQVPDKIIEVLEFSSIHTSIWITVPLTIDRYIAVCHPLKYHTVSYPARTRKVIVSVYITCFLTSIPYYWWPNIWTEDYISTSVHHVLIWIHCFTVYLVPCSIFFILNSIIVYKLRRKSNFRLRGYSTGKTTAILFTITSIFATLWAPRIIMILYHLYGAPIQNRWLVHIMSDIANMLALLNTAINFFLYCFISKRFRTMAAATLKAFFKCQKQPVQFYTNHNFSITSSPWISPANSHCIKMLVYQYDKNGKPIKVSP
Sequence of UniProt Q15831 (whole entry, looked up): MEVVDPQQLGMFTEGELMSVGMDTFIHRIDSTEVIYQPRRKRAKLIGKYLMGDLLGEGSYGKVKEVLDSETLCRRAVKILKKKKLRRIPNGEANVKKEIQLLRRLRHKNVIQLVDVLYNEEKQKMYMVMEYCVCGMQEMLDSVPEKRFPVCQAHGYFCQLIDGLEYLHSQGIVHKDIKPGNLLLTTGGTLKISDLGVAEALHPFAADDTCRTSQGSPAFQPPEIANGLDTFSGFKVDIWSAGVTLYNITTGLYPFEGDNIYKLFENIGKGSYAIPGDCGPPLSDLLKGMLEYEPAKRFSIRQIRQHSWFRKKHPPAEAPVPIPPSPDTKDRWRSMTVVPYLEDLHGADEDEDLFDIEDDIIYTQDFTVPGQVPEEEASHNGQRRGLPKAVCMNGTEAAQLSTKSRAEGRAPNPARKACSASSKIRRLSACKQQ
Sequence of UniProt Q6PE15 (whole entry, looked up): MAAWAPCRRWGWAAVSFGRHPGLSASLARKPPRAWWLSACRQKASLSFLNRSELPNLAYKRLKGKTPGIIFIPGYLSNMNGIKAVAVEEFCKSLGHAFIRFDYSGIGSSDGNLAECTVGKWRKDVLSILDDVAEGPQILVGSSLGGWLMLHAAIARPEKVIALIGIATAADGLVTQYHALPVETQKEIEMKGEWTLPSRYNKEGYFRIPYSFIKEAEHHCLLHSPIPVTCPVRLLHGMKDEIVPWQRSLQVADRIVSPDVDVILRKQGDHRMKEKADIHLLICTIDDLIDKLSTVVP
Sequence of UniProt O95881 (whole entry, looked up): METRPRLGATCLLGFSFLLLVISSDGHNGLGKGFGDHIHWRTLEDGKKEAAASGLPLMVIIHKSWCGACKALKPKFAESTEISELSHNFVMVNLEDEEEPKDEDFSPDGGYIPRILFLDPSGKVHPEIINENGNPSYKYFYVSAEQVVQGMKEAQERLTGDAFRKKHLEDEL

| Structure (SMILES) | target or system | test | test system | conditions | scale | endpoint | result |
| --- | --- | --- | --- | --- | --- | --- | --- |
| C#CCCCCOc1ccc2c(c1)CCCN2C(=O)CCl | Thioredoxin domain-containing protein 12 (TXNDC12, Homo sapiens, UniProt O95881) | mass spectrometry profiling | H460 cell lysate | 100 µM over 10 µM, UniProt O95881 | relative to: high over low concentration | reactivity ratio | 0.641 |
| CCO[C@H]1[C@H](O)[C@@H](N)[C@@H](O[C@H]2[C@H](O[C@@H]3O[C@H](CO)[C@@H](O[C@H]4O[C@@H](CN)[C@@H](O)[C@H](O)[C@H]4N)[C@H]3O)[C@@H](O)[C@H](N)C[C@@H]2N)O[C@@H]1CO | SLC6A4 (Homo sapiens, UniProt P31645) | radioligand binding |  | 10 µM, 1% DMSO |  | specific binding | -1% |
| CC[C@H](C)[C@H](NC(=O)[C@H](CO)NC(=O)[C@H](Cc1ccc(O)cc1)NC(=O)[C@H](Cc1ccc(O)cc1)NC(=O)[C@H](CC(N)=O)NC(=O)CNC(=O)[C@H](CO)NC(=O)[C@H](Cc1ccc(O)cc1)NC(=O)[C@H](CO)NC(=O)[C@H](CO)NC(=O)[C@H](CC(N)=O)NC(=O)COCCOCCNC(=O)CN1CCN(CC(=O)O)CCN(CC(=O)O)CCN(CC(=O)O)CC1)C(=O)N[C@@H](CC(C)C)C(N)=O [copper-64 labelled] |  | dynamic PET | tamoxifen-induced PDAC mouse model, pancreas | 0.9 min, CLDN4-expressing tumours |  | maximum pancreas uptake | 19.7 %IA/cc |
| Cc1sc2c(c1C)C(c1ccc(Cl)cc1)=NC(CC(=O)OC(C)(C)C)c1nnc(C)n1-2 (centres unmarked) | TBXA2R (Homo sapiens, UniProt P21731) | ligand displacement, radioligand |  | 1 µM |  | inhibition | -19% |
| CCn1nc(Cl)c2c1-c1cnc(N)c(c1)O[C@H](C)c1cc(F)ccc1-c1nn(C)cc1C2 | FES (Homo sapiens, UniProt P07332) | kinase activity, inhibitor |  |  | relative to: IC50 FES over IC50 ALK | selectivity ratio | 146 fold |
| CC(C)(C)C(=O)OCOP(=O)(OCOC(=O)C(C)(C)C)C1CCCN(O)C1=O (centres unmarked) | NCI-60 cell line panel |  |  |  |  | Log10GI50 mean | -6.27 log M |
| OB(O)c1cnn(-c2cc(Cl)ncn2)c1 | Trypsin (Sus scrofa, UniProt P00761) |  |  |  | relative to: Ki trypsin over Ki AmpC | selectivity ratio | 131000 |
| COc1ccccc1-c1n[nH]c2nc(N[C@H]3CC[C@H](NS(=O)(=O)CC(C)C)CC3)ncc12 |  | bead binding, competition bead pull-down, refers to: LINJ.36.4680 | Leishmania donovani extract | 10 µM | relative to: vehicle | relative abundance | 0.47 |
| CCOC(=O)[C@@H]1Cc2c(cc([N+](=O)[O-])cc2[N+](=O)[O-])[C@H](O)[C@]12C(=O)Nc1ccc(Br)cc12 | KIT (Homo sapiens, UniProt P10721) | binding, competition with immobilised ligand |  | 0.1 µM |  | remaining binding | 57% |
| COc1ccccc1-c1n[nH]c2nc(NC3CCN(C(=O)Cc4ccc(F)cc4F)CC3)ncc12 |  | bead binding, competition bead pull-down, refers to: LMJF.30.0120 | Leishmania donovani axenic amastigote extract | 10 µM | relative to: vehicle | relative abundance | 1.14 |
| O=C1NC2(CC2)COc2ncc(F)cc2[C@H]2COCCN2c2ccn3ncc1c3n2 |  |  | Sprague-Dawley rat, female, serum | oral, 5 mg/kg/day, 4 weeks daily, end of treatment |  | pancreatic amylase activity | 1690 ± 274 U/L |
| CCCc1cc2cc(-n3nc(CCC)c4c3CC(C)(C)CC4=O)cc(N3CCC(O)CC3)c2c(=O)[nH]1 | HSP90AB1 (Homo sapiens, UniProt P08238) | fluorescence polarization |  |  | relative to: apparent KD Hsp90α over apparent KD HSP90AB1 | selectivity ratio | > 60 fold |
| C/C(=N\OCCCN1CCCCC1)c1ccc(C(F)(F)F)cc1 | Neuronal acetylcholine receptor; alpha4/beta2 (Homo sapiens, UniProt P17787+P43681) | calcium influx, agonist, FLIPR |  | 10 µM |  | activation | 0.69% |
| Cc1nc2cccc(OCC(C)(C)C(=O)NC(C)C)c2c(N)c1C(=O)[O-].[Na+] | Salmonella typhimurium |  | TA100 | 0.13 mg per plate, with S9, plate incorporation |  | revertant colonies per plate | 116 ± 10 |
| Cc1ccc(NS(=O)(=O)c2c(C(=O)N3CCCCCC3)c(C)n(C)c2C)c(Cl)c1 | CV-1 |  | African green monkey cells | 33.33 µM, 60 (unit not given) |  | viability | 95.6% and 100% |
| CN(C)[C@H]1C[C@@]23CC[C@@]4(O2)C(=CC[C@]2(C)[C@@H](c5ccc6ccncc6c5)CC[C@H]24)C=C3[C@@H](O)[C@@H]1O | MLKL (Homo sapiens, UniProt Q8NB16) | ATP probe labelling, inhibitor, KiNativ profiling |  | 1 µM |  | inhibition | -4.9% |
| O=C1NC(=O)c2c1c1cc(F)c[n+]3c1c1c2c2cc(O)ccc2[n]1[Ru-4]312([N]=C=S)[S+]3CC[S+]1CC[S+]2CC3 (centres unmarked) | STK11 (Homo sapiens, UniProt Q15831) | enzyme activity |  | 100 nM, human enzyme, together with: 10 µM ATP | relative to: untreated | remaining activity | 106% |
| O=C(CF)N[C@H]1[C@H]([C@H](O)[C@H](O)CNC(=O)c2ccc(-c3ccccc3)cc2)O[C@@](OCc2cccc(Cl)c2Cl)(C(=O)O)C[C@@H]1O | CD22 (Homo sapiens, UniProt P20273) | isothermal titration calorimetry |  | concentration not given |  | binding stoichiometry | 1.33 ± 0.29 |

| Structure (SMILES) | target or system | test | test system | conditions | scale | endpoint | result |
| --- | --- | --- | --- | --- | --- | --- | --- |
| CS(C)(=O)=Nc1ccc(-c2ccc(-c3nc4cc(O[C@@H]5CO[C@H]6[C@@H]5OC[C@H]6O)[nH]c4cc3F)cc2)cc1 | RPS6KA4 (Homo sapiens, UniProt O75676) | enzyme activity, inhibitor |  | 10 µM |  | inhibition | -16% |
| C[C@@H](O)[C@@H]1CN([C@H](Cc2ccc3ccccc3c2)CN2CCC[C@H]2CN2CCNC[C@@H]2CO)CCN1CCC12CC3CC(CC(C3)C1)C2 | Oprd1 | radioligand binding | rat brain membranes | 500 nM, pH 7.5, 25 °C, together with: 2 nM [3H]DPDPE |  | remaining binding | 93% |
| Cc1nc2ccc(-c3ccc(OC(F)(F)F)cc3)cc2c(O)c1C#N | PFF0160c (Plasmodium falciparum, UniProt Q08210, E182D) | enzyme activity, DCIP colorimetric |  |  | relative to: E182D mutant over wild type | IC50 ratio | 0.7 |
| CN(C)CCCSC(=S)N1CCN(C(=O)/C=C/c2coc3ccccc3c2=O)CC1 | Nucleoprotein (N, Tomato spotted wilt virus, UniProt P25999, R94A) | binding, microscale thermophoresis |  | 0.1221 µM | dose series | MST response | 842 a.u. |
| CC[C@H](C)[C@H](NC(=O)[C@H](CCCNC(=N)N)NC(=O)[C@H](CCCNC(=N)N)NC(=O)[C@H](CC(C)C)NC(=O)[C@H](Cc1ccccc1)NC(=O)CNC(=O)CNC(=O)[C@@H](N)Cc1ccc(O)cc1)C(=O)N[C@@H](CCCNC(=N)N)C(=O)N1CCC[C@H]1C(=O)N[C@@H](CCCCN)C(=O)N[C@@H](CC(C)C)C(=O)N[C@@H](CCCCN)C(=O)O | GPR139 (Homo sapiens, UniProt Q6DWJ6) | G11 activation, agonist, BRET |  | 40 µM | relative to: GoA response | maximal G protein activation | ~62% |
| N[C@H](C(=O)N1CCCC1)C1CCN(c2nccc3c(-c4ncc(Cl)cc4Cl)cccc23)CC1 | PADI4 (Homo sapiens, UniProt Q9UM07) | thermal shift |  | 0.3009 µM |  | melting temperature | 53.5 °C and 53.3 °C |
| CCCCC[C@@H]1OC(=O)[C@@H](C)N(C)C(=O)[C@H](CCCCC)OC(=O)[C@@H](C)N(C)C(=O)[C@H](CCCCC)OC(=O)[C@@H](C)N(C)C(=O)[C@H](CCCCC)OC(=O)[C@@H](C)N(C)C1=O | ryanodine receptor 2 (Sus scrofa, UniProt A0A5G2R1W3) | single-channel gating, planar lipid bilayer |  | 3 µM, pCa 7, porcine |  | open dwell time constant T2 | 17.6 ± 8.4 ms |
| CCCC[C@H]1CNCCN1C[C@@H]1CCCN1C[C@H](CC1CCCCC1)N1CCN(CCC23CC4CC(CC(C4)C2)C3)[C@H](Cc2ccc(O)cc2)C1 | Oprd1 | radioligand binding | rat brain membranes | 500 nM, pH 7.5, 25 °C, together with: 2 nM [3H]DPDPE |  | remaining binding | 90.5% |
| CON(C(=O)c1cn(C)nc1C(F)F)C(C)Cc1c(Cl)cc(Cl)cc1Cl (centres unmarked) | SDHD/SDHC/SDHB (Sus scrofa, UniProt A5GZW8+D0VWV4+Q007T0) | enzyme activity, inhibitor, DCIP reduction | pig | 0.1 µM, together with: DCIP 160 µM |  | reaction velocity | 0.0229 µM/s and 0.0218 µM/s and 0.0227 µM/s |
| C[C@@H](O)[C@@H]1CN([C@@H](CC2CCCCC2)CN2CCC[C@H]2CN2CCNC[C@@H]2Cc2ccc3ccccc3c2)CCN1CCCC1CCCC1 | Oprd1 | radioligand binding | rat brain membranes | 500 nM, pH 7.5, 25 °C, together with: 2 nM [3H]DPDPE |  | remaining binding | 92.2% |
| C=C(c1ccccc1)[C@H](N)P(=O)(O)O | PAL1 (Petroselinum crispum, UniProt P24481, Y110F) | binding, ITC |  |  |  | ΔG | -6.5 kcal/mol |
| CC(=O)N[C@@H](CCC(N)=O)C(=O)N[C@@H](CC1CCCCC1)C(=O)N[C@@H](CNC(=O)CCl)C(=O)N[C@@H](CC(C)C)C(=O)N[C@@H](Cc1ccccc1)C(=O)O | Beta sliding clamp (Escherichia coli, UniProt P0A988) | binding, isothermal titration calorimetry |  | pH 7.4, 37 °C |  | -TΔS | 8.1 kcal/mol |
| CCCCC/C=C\C/C=C\C/C=C\C/C=C\CCCC(=O)NCCc1ccc(O)c(O)c1 | Trpv1 (Mus musculus, UniProt Q704Y3, E571A) | patch clamp |  | E571A mutant channel | relative to: 3 mM 2-APB current | maximal open probability | 0.42 ± 0.07 |
| CC(C)CC(O)(CC(C)C)c1cn(C(=O)N2CCCC2)nn1 | Palmitoyl-protein thioesterase ABHD10, mitochondrial (Mus musculus, UniProt Q6PE15) | probe labelling, inhibitor, competitive ABPP-SILAC, refers to: Abhd10 | mouse T cells | concentration not given, 4 h, in situ, protein level | relative to: treated over DMSO, lower = more inhibition | SILAC ratio | 1.4 |
| CCc1nnc(-c2c(OC)cc(-c3cnc4cc(-c5cnn(C)c5)ccn34)cc2OC)o1 | CHRM2 (Homo sapiens, UniProt P08172) | antagonist radioligand, radioligand binding |  | 10 µM, SafetyScreen44 M2 mean | lower = stronger displacement | remaining binding | 95.1% |
| Cc1cc(Nc2nc(C[C@@]3(C(=O)O)CCN(Cc4cccc(Cl)c4F)[C@H](C)C3)cc(C)c2F)[nH]n1 | ADRA1A (Homo sapiens, UniProt P35348) | agonist |  | 10 µM |  | activation | 0.25% |
| CC(C)[C@H]1NC(=O)C[C@H]2/C=C/CCSSC[C@@H](NC1=O)C(=O)N[C@H](Cc1cccc3ccccc13)C(=O)NCC(=O)O2 | EPHA8 (Homo sapiens, UniProt P29322) | enzyme activity, inhibitor |  | 10 µM |  | inhibition | 7.7% |

Some of these lines once more:
| Structure (SMILES) | target or system | test | test system | conditions | scale | endpoint | result |
| --- | --- | --- | --- | --- | --- | --- | --- |
| C/C(=N\OCCCN1CCCCC1)c1ccc(C(F)(F)F)cc1 | Neuronal acetylcholine receptor; alpha4/beta2 (Homo sapiens, UniProt P17787+P43681) | calcium influx, agonist, FLIPR |  | 10 µM |  | activation | 0.69% |
| CCCCC[C@@H]1OC(=O)[C@@H](C)N(C)C(=O)[C@H](CCCCC)OC(=O)[C@@H](C)N(C)C(=O)[C@H](CCCCC)OC(=O)[C@@H](C)N(C)C(=O)[C@H](CCCCC)OC(=O)[C@@H](C)N(C)C1=O | ryanodine receptor 2 (Sus scrofa, UniProt A0A5G2R1W3) | single-channel gating, planar lipid bilayer |  | 3 µM, pCa 7, porcine |  | open dwell time constant T2 | 17.6 ± 8.4 ms |
| CCn1nc(Cl)c2c1-c1cnc(N)c(c1)O[C@H](C)c1cc(F)ccc1-c1nn(C)cc1C2 | FES (Homo sapiens, UniProt P07332) | kinase activity, inhibitor |  |  | relative to: IC50 FES over IC50 ALK | selectivity ratio | 146 fold |
| C[C@@H](O)[C@@H]1CN([C@H](Cc2ccc3ccccc3c2)CN2CCC[C@H]2CN2CCNC[C@@H]2CO)CCN1CCC12CC3CC(CC(C3)C1)C2 | Oprd1 | radioligand binding | rat brain membranes | 500 nM, pH 7.5, 25 °C, together with: 2 nM [3H]DPDPE |  | remaining binding | 93% |
| Cc1ccc(NS(=O)(=O)c2c(C(=O)N3CCCCCC3)c(C)n(C)c2C)c(Cl)c1 | CV-1 |  | African green monkey cells | 33.33 µM, 60 (unit not given) |  | viability | 95.6% and 100% |
